Experimental data gathered from unrelated publications.
A part holds a random share of what one study measured. Changes are numbered by the printed parent chain.
UniProt P51812, sequence (whole entry, looked up): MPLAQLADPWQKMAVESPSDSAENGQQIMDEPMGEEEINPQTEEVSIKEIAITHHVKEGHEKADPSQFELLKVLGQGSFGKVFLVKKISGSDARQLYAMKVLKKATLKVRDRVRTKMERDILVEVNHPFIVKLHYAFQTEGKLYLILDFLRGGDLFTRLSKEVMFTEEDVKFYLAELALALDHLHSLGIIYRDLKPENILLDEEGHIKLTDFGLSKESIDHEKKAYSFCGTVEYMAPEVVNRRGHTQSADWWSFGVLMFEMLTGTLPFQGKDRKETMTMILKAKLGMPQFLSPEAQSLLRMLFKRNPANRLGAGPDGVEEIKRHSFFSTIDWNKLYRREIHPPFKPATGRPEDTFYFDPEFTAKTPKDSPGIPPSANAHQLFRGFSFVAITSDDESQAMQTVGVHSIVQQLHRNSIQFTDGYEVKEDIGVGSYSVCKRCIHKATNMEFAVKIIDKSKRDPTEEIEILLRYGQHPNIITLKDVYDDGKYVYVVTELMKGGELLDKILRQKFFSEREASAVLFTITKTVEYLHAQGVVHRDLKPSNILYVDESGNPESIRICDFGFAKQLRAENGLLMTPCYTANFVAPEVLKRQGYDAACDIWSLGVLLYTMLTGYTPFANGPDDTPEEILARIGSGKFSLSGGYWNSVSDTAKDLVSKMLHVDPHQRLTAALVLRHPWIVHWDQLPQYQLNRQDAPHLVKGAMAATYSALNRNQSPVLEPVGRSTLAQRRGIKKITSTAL
UniProt P29317, sequence (whole entry, looked up): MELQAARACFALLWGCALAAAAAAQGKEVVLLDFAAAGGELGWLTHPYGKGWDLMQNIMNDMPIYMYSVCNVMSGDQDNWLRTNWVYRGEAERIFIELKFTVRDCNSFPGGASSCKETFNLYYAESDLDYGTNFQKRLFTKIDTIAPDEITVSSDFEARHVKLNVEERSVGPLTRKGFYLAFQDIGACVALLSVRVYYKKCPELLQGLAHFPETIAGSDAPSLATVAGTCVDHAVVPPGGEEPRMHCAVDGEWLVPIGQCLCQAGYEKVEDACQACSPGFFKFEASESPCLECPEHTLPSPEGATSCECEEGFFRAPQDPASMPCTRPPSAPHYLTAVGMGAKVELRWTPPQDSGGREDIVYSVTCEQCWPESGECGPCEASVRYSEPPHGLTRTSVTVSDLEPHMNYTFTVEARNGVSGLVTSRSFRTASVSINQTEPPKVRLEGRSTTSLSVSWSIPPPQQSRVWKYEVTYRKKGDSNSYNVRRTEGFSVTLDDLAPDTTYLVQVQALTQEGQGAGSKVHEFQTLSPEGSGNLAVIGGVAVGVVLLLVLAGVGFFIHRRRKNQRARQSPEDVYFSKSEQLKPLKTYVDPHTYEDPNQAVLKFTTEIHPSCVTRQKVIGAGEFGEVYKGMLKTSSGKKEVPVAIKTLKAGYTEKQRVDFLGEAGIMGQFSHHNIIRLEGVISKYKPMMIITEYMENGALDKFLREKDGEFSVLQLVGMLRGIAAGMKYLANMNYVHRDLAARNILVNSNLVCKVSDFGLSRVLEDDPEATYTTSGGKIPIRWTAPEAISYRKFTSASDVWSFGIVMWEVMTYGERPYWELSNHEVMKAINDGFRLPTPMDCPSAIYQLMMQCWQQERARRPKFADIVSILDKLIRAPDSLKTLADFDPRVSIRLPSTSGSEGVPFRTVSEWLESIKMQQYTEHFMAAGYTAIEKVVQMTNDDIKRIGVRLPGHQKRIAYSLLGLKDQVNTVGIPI
UniProt P17948, sequence (whole entry, looked up): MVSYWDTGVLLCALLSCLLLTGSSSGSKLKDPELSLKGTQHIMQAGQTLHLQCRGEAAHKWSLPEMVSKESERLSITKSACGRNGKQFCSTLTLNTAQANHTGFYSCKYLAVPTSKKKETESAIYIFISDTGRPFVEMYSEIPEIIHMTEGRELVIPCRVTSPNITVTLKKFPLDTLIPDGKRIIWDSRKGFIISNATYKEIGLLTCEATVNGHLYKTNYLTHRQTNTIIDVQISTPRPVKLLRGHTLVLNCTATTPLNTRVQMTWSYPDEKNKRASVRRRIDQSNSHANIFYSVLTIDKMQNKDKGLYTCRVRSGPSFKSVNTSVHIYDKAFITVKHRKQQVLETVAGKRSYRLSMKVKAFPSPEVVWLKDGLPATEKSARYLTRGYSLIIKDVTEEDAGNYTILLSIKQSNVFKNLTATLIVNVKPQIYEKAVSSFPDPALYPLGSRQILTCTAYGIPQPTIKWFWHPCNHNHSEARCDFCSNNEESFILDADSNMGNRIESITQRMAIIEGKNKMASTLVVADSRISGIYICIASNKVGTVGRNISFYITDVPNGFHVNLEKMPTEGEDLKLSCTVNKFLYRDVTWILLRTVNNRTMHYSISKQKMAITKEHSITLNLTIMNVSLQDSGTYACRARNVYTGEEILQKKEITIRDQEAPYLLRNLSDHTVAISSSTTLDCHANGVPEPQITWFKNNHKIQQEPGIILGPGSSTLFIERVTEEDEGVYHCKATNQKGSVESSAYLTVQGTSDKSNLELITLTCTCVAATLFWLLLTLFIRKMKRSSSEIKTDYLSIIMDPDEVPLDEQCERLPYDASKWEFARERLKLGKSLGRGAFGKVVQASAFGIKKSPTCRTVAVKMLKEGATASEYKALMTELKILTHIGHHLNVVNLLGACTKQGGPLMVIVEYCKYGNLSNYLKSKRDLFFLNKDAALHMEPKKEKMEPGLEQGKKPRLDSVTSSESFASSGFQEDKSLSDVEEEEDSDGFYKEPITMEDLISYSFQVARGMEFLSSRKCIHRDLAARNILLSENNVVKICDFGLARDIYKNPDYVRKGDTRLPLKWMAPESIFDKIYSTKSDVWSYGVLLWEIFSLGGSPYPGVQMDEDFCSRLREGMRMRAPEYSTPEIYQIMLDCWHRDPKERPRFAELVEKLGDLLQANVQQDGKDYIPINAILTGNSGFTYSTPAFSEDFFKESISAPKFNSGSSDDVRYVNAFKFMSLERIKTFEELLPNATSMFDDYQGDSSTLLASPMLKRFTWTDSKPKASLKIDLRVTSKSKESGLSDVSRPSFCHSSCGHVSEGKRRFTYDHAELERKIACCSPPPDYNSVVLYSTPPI
UniProt Q9HBY8, sequence (whole entry, looked up): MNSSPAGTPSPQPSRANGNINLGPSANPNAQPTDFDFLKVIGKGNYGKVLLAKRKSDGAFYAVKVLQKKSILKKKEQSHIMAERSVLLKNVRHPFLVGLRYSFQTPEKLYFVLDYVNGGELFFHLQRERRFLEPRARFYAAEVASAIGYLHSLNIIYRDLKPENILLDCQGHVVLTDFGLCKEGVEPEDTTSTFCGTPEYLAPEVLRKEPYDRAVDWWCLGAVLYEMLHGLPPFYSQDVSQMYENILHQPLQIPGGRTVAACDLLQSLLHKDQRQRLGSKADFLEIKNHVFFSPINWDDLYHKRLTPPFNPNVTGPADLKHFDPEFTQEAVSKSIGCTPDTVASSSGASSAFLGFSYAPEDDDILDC
UniProt P49674, sequence (whole entry, looked up): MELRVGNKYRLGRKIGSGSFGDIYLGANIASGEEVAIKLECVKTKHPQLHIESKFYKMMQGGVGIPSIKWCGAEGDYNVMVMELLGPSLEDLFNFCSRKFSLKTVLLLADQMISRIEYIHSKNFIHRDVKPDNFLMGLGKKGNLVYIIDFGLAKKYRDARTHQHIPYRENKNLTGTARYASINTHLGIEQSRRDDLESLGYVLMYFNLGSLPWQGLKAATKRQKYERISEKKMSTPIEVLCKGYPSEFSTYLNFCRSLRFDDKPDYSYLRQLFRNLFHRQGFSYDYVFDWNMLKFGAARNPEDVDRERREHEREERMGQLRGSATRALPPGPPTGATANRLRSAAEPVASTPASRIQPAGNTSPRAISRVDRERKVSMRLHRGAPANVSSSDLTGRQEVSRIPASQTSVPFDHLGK
UniProt Q9P289, sequence (whole entry, looked up): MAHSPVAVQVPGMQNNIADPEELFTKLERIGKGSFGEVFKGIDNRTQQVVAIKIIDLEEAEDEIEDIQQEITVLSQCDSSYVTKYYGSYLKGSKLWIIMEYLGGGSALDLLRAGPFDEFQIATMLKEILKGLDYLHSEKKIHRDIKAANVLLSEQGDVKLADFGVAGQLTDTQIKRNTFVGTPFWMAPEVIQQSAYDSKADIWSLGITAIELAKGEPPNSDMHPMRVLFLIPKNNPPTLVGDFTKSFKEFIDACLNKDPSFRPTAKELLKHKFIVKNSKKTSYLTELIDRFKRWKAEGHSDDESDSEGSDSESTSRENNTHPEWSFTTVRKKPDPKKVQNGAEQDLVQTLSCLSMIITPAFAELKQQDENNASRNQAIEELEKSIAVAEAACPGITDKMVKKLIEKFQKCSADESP

Set 1
Structure (SMILES): O=c1nc(-c2ccccn2)sc2ccccc12
Method: competition with immobilised ligand
Tested at: 1 µM
target | assay | remaining binding
BUB1 (Homo sapiens, UniProt O43683) | binding | 100%
STK26 (Homo sapiens, UniProt Q9P289) | binding | 100%
Tyrosine-protein kinase JAK3, JH1 (JAK3, Homo sapiens, UniProt P52333) | binding | 100%
MAP3K6 (Homo sapiens, UniProt O95382) | binding | 71%
MAP3K4 (Homo sapiens, UniProt Q9Y6R4) | binding | 92%
MAPKAPK2 (Homo sapiens, UniProt P49137) | binding | 100%
TESK1 (Homo sapiens, UniProt Q15569) | binding | 84%
Tyrosine-protein kinase ABL1, non-phosphorylated (ABL1, Homo sapiens, UniProt P00519, T315I) | binding | 100%
CDK15 (Homo sapiens, UniProt Q96Q40) | binding | 75%
MAPK11 (Homo sapiens, UniProt Q15759) | binding | 100%
PTK6 (Homo sapiens, UniProt Q13882) | binding | 100%
Ribosomal protein S6 kinase alpha-3, N-terminal kinase domain (RPS6KA3, Homo sapiens, UniProt P51812) | binding | 71%
MAP3K12 (Homo sapiens, UniProt Q12852) | binding | 100%
ERBB3 (Homo sapiens, UniProt P21860) | binding | 83%
MAPK12 (Homo sapiens, UniProt P53778) | binding | 58%
MAP4K4 (Homo sapiens, UniProt O95819) | binding | 100%
MET (Homo sapiens, UniProt P08581) | cell-free assay | 74%

Set 2
Structure (SMILES): Oc1cccc(-c2nc(N3CCOCC3)c3oc4ncccc4c3n2)c1
Effect on: enzyme activity
Action: inhibitor
Tested at: 0.5 µM
Relative to: control
target | remaining activity
FLT1 (Homo sapiens, UniProt P17948) | 83.6%
RPS6KA3 (Homo sapiens, UniProt P51812) | 101%
SIK2 (Homo sapiens, UniProt Q9H0K1) | 98.9%
CSNK1D (Homo sapiens, UniProt P48730) | 91.3%
PAK1 (Homo sapiens, UniProt Q13153) | 97.6%
PRKCQ (Homo sapiens, UniProt Q04759) | 105%
EPHA2 (Homo sapiens, UniProt P29317) | 99.9%
Cyclin-dependent kinase 2, with cyclin E (CDK2, Homo sapiens, UniProt P24941) | 85.5%
SRPK1 (Homo sapiens, UniProt Q96SB4) | 105%
CSNK1E (Homo sapiens, UniProt P49674) | 87.1%
CLK2 (Homo sapiens, UniProt P49760) | 88%
SGK2 (Homo sapiens, UniProt Q9HBY8) | 96.7%

Set 3
Target: Transcription factor Sp1 (SP1, Homo sapiens, UniProt P08047, residues 1-785, full length assumed)
UniProt P08047, sequence (whole entry, looked up): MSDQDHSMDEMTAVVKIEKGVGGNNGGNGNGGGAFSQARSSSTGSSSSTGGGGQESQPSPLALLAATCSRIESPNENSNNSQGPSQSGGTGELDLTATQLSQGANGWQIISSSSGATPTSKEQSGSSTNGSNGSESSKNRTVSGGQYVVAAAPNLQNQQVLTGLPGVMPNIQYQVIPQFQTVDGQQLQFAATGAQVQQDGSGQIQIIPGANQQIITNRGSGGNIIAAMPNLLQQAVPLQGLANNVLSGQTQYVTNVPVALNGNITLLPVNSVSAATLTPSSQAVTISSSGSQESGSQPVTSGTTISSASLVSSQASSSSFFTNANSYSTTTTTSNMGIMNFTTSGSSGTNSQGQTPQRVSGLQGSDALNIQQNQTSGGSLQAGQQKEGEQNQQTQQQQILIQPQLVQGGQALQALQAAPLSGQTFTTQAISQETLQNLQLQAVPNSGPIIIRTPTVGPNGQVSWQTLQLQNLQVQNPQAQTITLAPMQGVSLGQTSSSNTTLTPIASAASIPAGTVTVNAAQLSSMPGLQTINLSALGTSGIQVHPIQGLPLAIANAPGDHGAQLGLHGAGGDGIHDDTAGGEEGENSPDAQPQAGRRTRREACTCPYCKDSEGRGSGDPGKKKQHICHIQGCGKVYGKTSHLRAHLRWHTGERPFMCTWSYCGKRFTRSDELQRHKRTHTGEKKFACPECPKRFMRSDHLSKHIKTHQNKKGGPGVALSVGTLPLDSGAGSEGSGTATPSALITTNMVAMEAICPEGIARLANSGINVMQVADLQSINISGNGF
Method: protein-binding microarray
Molecule type: double-stranded DNA, one strand shown
Sample: in vitro
Tested at: not given
Notes: k-mer, scored over probes, only values ≥0.25
Reading: higher = stronger binding
Strand | E-score
ACACTGTA | 0.275
ATCGGGGC | 0.252
ACCCACCA | 0.285
ATATGGGC | 0.363
CGGGGTAG | 0.311
GTATTGTA | 0.262
AAGGGGAG | 0.318
ATTCCCCA | 0.308

Set 4
Target: CCND1, cyclin fold, Cln2 fusion (human)
Method: yeast growth competition, sequencing
Sample: yeast
Notes: weak parent motif
Relative to: not given
Reading: higher = stronger binding
Parent: BRCA2 docking peptide (human); PSIKRNLLNEFDR; partner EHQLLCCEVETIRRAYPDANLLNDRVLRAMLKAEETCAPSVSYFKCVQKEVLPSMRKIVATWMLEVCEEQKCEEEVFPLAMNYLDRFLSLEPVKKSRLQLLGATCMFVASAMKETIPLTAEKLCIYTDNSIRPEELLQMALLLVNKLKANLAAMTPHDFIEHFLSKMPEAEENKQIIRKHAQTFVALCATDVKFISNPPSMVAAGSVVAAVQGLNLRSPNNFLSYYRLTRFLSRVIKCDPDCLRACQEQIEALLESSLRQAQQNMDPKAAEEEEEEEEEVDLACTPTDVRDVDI
Change | normalised enrichment score
PFIKRNLLNEFDR [S2F] | 0.0249
PSIKCNLLNEFDR [R5C] | 0.443
PSIKRNLLHEFDR [N9H] | 0.538
PSIKRNLNNEFDR [L8N] | -0.484
NSIKRNLLNEFDR [P1N] | 0.78
PSIKMNLLNEFDR [R5M] | 0.737
PSIKRNILNEFDR [L7I] | 0.606
SSIKRNLLNEFDR [P1S] | 1.12

Repeated from above (set 1):
target | assay | remaining binding
BUB1 (Homo sapiens, UniProt O43683) | binding | 100%
TESK1 (Homo sapiens, UniProt Q15569) | binding | 84%
MAP3K6 (Homo sapiens, UniProt O95382) | binding | 71%
MAP4K4 (Homo sapiens, UniProt O95819) | binding | 100%
PTK6 (Homo sapiens, UniProt Q13882) | binding | 100%
Ribosomal protein S6 kinase alpha-3, N-terminal kinase domain (RPS6KA3, Homo sapiens, UniProt P51812) | binding | 71%
CDK15 (Homo sapiens, UniProt Q96Q40) | binding | 75%
